Published values from different studies.
Protocols differ between the studies behind these lines.
B1: hisG (Mycobacterium tuberculosis, UniProt P9WMN1); chain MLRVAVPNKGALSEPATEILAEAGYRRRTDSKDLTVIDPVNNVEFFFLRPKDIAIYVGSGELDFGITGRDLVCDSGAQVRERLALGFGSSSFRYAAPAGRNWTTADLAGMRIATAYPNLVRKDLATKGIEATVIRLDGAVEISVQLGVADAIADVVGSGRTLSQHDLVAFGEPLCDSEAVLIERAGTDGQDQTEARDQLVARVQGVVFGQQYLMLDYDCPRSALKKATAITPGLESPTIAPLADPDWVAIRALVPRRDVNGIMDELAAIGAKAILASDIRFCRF
B2: IgG 15884 anti-Nsp12 IgG; V domains shown; VH EVQLVESGGGLVQPGGSLRLSCAASGFNIYYYSMHWVRQAPGKGLEWVASIYSYYGYTSYADSVKGRFTISADTSKNTAYLQMNSLRAEDTAVYYCARHPAYGGMDYWGQGTLVTVSS; VL DIQMTQSPSSLSASVGDRVTITCRASQSVSSAVAWYQQKPGKAPKLLIYSASSLYSGVPSRFSGSRSGTDFTLTISSLQPEDFATYYCQQSHWHPITFGQGTKVEIK
Chain of UniProt Q9HUM0 (whole entry, looked up): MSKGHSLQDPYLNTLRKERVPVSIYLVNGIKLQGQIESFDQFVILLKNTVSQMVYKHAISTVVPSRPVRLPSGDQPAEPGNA
Chain of UniProt Q2KS03 (whole entry, looked up): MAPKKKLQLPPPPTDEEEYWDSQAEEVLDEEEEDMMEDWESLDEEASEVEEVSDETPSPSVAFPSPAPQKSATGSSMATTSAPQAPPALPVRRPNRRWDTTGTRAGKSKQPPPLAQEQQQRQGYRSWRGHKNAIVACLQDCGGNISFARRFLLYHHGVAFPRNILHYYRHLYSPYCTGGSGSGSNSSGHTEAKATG
Chain of UniProt P16727 (whole entry, looked up): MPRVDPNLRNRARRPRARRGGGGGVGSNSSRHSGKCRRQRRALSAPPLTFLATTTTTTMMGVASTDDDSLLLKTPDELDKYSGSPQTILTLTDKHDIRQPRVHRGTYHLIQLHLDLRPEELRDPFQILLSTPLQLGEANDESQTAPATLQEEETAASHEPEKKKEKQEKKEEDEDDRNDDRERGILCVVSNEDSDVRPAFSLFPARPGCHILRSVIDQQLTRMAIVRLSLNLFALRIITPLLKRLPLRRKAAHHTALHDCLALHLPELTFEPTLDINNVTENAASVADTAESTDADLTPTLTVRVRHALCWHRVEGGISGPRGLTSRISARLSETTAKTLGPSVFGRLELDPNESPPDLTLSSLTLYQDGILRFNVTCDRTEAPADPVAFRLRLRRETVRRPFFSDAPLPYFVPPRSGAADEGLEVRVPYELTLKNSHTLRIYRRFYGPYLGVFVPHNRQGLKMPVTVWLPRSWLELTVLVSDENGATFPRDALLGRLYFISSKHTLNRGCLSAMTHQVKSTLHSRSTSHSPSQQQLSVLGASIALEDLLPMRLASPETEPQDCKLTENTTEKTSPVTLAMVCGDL

Molecule	target or system	assay	test system	conditions	measurement	result
AGGGGCUUUUUCUUUGCCCAGUUCCUUGCCUGCUCCUCCUGGGCCGGGCCUUUCCUGUUGCCGGCUCGCCUUGCUGCUCCCUCCCCUACCGUGACCGGCACCCGGCGAGCUUGGCGGGCCCGCCCUUUUGGCUCCGGACGCGUGGAAUCAUAUUUCCCGAAUCUGUUAAUGAGACCGUUCGAUUCCGCCCCCAACAAGGUUCUGGAACGCUGGCAGGAAAACAUUCAUGGAUUCAGGUU (structured RNA)	hfq full length assumed (Pseudomonas aeruginosa, UniProt Q9HUM0)	EMSA	folded RNA	–	binding	no binding
CGGGCCCGUCCCACCGCCCUGGAGCACCAUCCGGGGCCGUGGGCCGGGCACCGGG (structured RNA)	UL84 1-586 (Human cytomegalovirus, UniProt P16727)	pull-down immunoblot	folded RNA	–	binding	no binding
GCCCGGAUAGCUCAGUCGGUAGAGCAUCAGACUUUUAAUCUGAGGGUCCAGGGUUCAAGUCCCUGUUCGGGCGCCA (tRNA (Homo sapiens); unmodified)	gag nucleocapsid 378-432 (HIV-1, UniProt P12493)	fluorescence anisotropy	folded RNA	–	binding	binds
B1 (hisG)	O=P(O)(O)OC[C@H]1O[C@H](OP(=O)(O)OP(=O)(O)O)[C@H](O)[C@@H]1O	steady-state kinetics	–	pH 8.5, 25 °C, apparent, with: ATP	Km	49 µM
CTGTTGGGGTGAGTACTCCCTCTCAAAAGCGGGCA (dsDNA)	L4-22K residues 1-196 (Human adenovirus 5, UniProt Q2KS03)	EMSA	double-stranded DNA, one strand shown	–	binding	binds
B2 (IgG 15884 anti-Nsp12 IgG)	Nsp12 (SARS-CoV-2, UniProt P0DTD1)	BLI	antibody	read off a plot	Kd	12 nM

A few entries again:
Molecule	target or system	assay	test system	conditions	measurement	result
CGGGCCCGUCCCACCGCCCUGGAGCACCAUCCGGGGCCGUGGGCCGGGCACCGGG (structured RNA)	UL84 1-586 (Human cytomegalovirus, UniProt P16727)	pull-down immunoblot	folded RNA	–	binding	no binding
